Results pooled from the literature.
Protocols differ between the studies behind these lines. ± marks the error that the study gave.
Organism: SARS-CoV-2

| Substance | test | test system | setting | EC50 |
| --- | --- | --- | --- | --- |
| CN(C)c1ccc(N(Cc2cc(Cl)cs2)C(=O)Cc2cncc3ccccc23)cc1 | viral replication | Calu-3, Omicron BA.1 | – | 0.6 µM |
| COc1ccc(C(=O)CN(C(=O)c2ccc(Cl)cc2)N2C(=O)CCC2=O)cc1 | plaque formation, plaque reduction | Vero E6 | 72 h | > 50 µM |
| O=C[C@H](C[C@@H]1CCNC1=O)NC(=O)[C@H](CC1CCCCC1)NC(=O)c1cc2ccccc2[nH]1 | viral replication | Vero E6, 2019-nCoV-WIV04 | 20% human serum | 1.91 µM |
| Nc1nc(=O)n([C@@H]2CS[C@H](CO)O2)cc1F | viral replication | Vero | 48 h | > 20 µM |
| Cc1ccc(NC(=O)c2cc3c(=O)n4cccc(C)c4nc3n2C)cc1Cl | viral replication | Vero E6 | – | 0.104 µM |
| Cc1cccc(/C=N/Nc2cc(N3CCOCC3)nc(OCCc3ccccn3)n2)c1 | viral replication | – | – | 0.42 µM |
| CC(C)(C)[C@H](NC(=O)C(F)(F)F)C(=O)N1C[C@H]2[C@@H]([C@H]1C(=O)N[C@H](C#N)C[C@@H]1CCNC1=O)C2(C)C | viral replication, qRT-PCR of viral RNA | Vero, Washington | – | 3.7 ± 0.1 µM |
| C[C@H](NC(=O)[C@@H](c1cccnc1)N(C(=O)C(Cl)Cl)c1ccc(-c2ccccc2)cc1)c1ccccc1 | viral replication | Caco-2 hACE2 | – | 2.05 µM |
| C[C@H](Cc1ccc(O)c(O)c1)[C@@H](C)Cc1ccc(O)c(O)c1 | viral replication, high-content imaging screen | – | cell-based | > 100 µM |
| COc1ccc(C(=O)Nc2ccccc2C(=O)N[C@H](C(=O)NC2CCCCC2)C(C)C)cc1 | plaque formation, plaque reduction | Vero E6 | 72 h | 35.7 ± 3.8 µM |
| CN1CCC(CN2c3ccccc3Sc3ccccc32)C1 (stereo not drawn) | viral replication, GFP plate reader screen | – | cell-based | 16.2 µM |
| C[C@@H]1CN(c2ncc(C(O)CO)cc2Cl)CCN1c1nc2c(-c3cc(F)c(F)c(F)c3)cc(C(F)(F)F)cc2[nH]1 (stereo partly drawn) | viral replication | Huh-7-ACE2, USA-WA1/2020 | 24 h | 1.4 µM |
| COc1ccc(-c2ocnc2C(=O)NCCCn2cncn2)cc1Cl | plaque formation, plaque reduction | Vero E6 | 72 h | 11.2 ± 5.5 µM |
| CC(C)(C)c1ccc(N(Cc2cc(Cl)cs2)C(=O)Cc2cncc3ccccc23)cc1 | viral replication | Calu-3, Omicron BA.1 | – | 6 µM |
| CC(C)(C)[C@H](NC(=O)C(F)(F)F)C(=O)N1C[C@H]2[C@@H]([C@H]1C(=O)N[C@@H](C[C@@H]1CCNC1=O)C(=O)c1nc3cccc(F)c3s1)C2(C)C | viral replication | Vero C1008, JPN/TY/WK-521 (ancestral Wuhan) | – | 0.08 µM |
| CCc1ccc(NC(=O)c2cc3c(=O)n4ccccc4nc3n2C)cc1 | viral replication | Vero E6 | – | 0.0762 µM |
| N#C[C@@]1(n2ccc(N)nc2=O)O[C@H](CO)[C@@H](O)[C@H]1O | viral replication, qRT-PCR of viral RNA | Vero, Washington | – | 2.1 ± 0.3 µM |
| CSc1ccc(N(Cc2cc(Cl)cs2)C(=O)Cc2cncc3ccccc23)cc1 | – | Calu-3, B.1.617.2 Delta | – | 6.7 µM |
| CN(C)CCON=C1c2ccccc2CCc2ccccc21 | viral replication, high-content imaging screen | – | cell-based | > 100 µM |
| O=c1c2ccccc2[se]n1-c1ccccc1 | viral replication | Vero E6 | 96 h | > 100 µM |
| Nc1ncnc2c1nnn2[C@@H]1C(F)=C(CO)[C@@H](O)[C@H]1O | viral replication, spike protein immunostaining | Vero | 48 h | 12.2 µM |
| (R)-hydroxychloroquine sulfate | viral replication, measured: viral RNA in supernatant | Vero E6 | 48 h | 3.05 µM |
| CC(C)[C@H](NC(=O)c1ccccc1NC(=O)c1ccccc1)C(=O)N[C@H](CO)C(C)C | plaque formation, plaque reduction | Vero E6 | 72 h | 1.3 ± 0.5 µM |
| CC(C)(O)c1ccc2c(c1)C(=CCCN1CCC(O)(c3ccc(Cl)cc3)C(C)(C)C1)c1cccnc1CO2 (stereo not drawn) | viral replication | Huh-7-ACE2, USA-WA1/2020 | 24 h | 1 µM |
| CC(C)(C)NC(=O)N[C@H](C(=O)N1C[C@H]2[C@@H]([C@H]1C(=O)NC(CC1CCC1)C(=O)C(N)=O)C2(C)C)C(C)(C)C (stereo partly drawn) | plaque formation, plaque reduction | Vero E6 | 72 h | 22 ± 2.6 µM |
| O=c1c(O)c(-c2cc(O)c(O)c(O)c2)oc2cc(O)cc(O)c12 | viral replication | Vero C1008 | 72 h | > 31.2 µM |

| Substance | test | test system | setting | EC50 |
| --- | --- | --- | --- | --- |
| COC(=O)[C@H]1[C@H]2C[C@@H]3c4[nH]c5ccccc5c4CCN3C[C@H]2C[C@@H](OC(=O)c2cc(OC)c(OC)c(OC)c2)[C@@H]1OC | viral replication, high-content imaging screen | BetaCov/Belgium/GHB-03021/2020 | cell-based | > 25.1 µM |
| O=C[C@H](C[C@@H]1CCNC1=O)NC(=O)[C@H](CC1CC1)N1C[C@@H](NC(=O)OCc2ccccc2)CCC1=O | viral replication | Vero C1008, USA-WA1/2020 | – | ~38.2 µM |
| CCC(CC)COC(=O)[C@H](C)N[P@](=O)(OC[C@H]1O[C@@](C#N)(c2ccc3c(N)ncnn23)[C@H](O)[C@@H]1O)Oc1ccccc1 | viral replication | Vero E6 | – | 0.00591 µM |
| Cc1cccc(C)c1OCC(=O)N[C@@H](Cc1ccccc1)[C@@H](O)C[C@H](Cc1ccccc1)NC(=O)[C@H](C(C)C)N1CCCNC1=O | viral replication, GFP plate reader screen | – | cell-based | 22.9 µM |
| CC(C)/N=c1\cc2n(-c3ccc(Cl)cc3)c3ccccc3nc-2cc1Nc1ccc(Cl)cc1 | viral replication | Huh-7-ACE2, USA-WA1/2020 | 24 h | 0.49 µM |
| O=C(O[C@@H]1O[C@@H]2COC(=O)c3cc(O)c(O)c(O)c3-c3c(cc(O)c(O)c3O)C(=O)O[C@H]([C@H]1O)[C@@H]2O)c1cc(O)c(O)c(O)c1 | viral infection | Vero | – | 0.08 mg/L |
| Fc1ccc(-c2ccc(CN3CCN(c4cccc5ccoc45)CC3)[nH]2)cc1 | viral replication | Huh-7-ACE2, USA-WA1/2020 | 24 h | 2.7 µM |
| CC(=O)N[C@@H](CC(C)C)C(=O)N[C@@H](CC(C)C)C(=O)N[C@H](C=O)CCCNC(=N)N | viral replication | Huh-7 | 48 h | 10.6 µM |
| Cc1c(-c2ccccc2)oc2c(C(=O)OC(C)(C)CN3CCCCC3)cccc2c1=O | viral replication, high-content imaging screen | – | cell-based | > 100 µM |
| CC(C)(C)[C@H](NC(=O)C(F)(F)F)C(=O)N1C[C@H]2[C@@H]([C@H]1C(=O)N[C@H](C#N)C[C@@H]1CCNC1=O)C2(C)C | viral replication | Calu-3, Omicron BA.2 | – | 0.9 µM |
| CC(C)OC(=O)[C@H](C)N[P@](=O)(OC[C@H]1O[C@@](C#N)(c2ccc3c(N)ncnn23)[C@H](O)[C@@H]1O)Oc1ccccc1 | viral replication | A549-ACE2-TMPRSS2, WA1 | 24 h | 5.2 µM |
| O=c1nc[nH]c2c1ncn2[C@H]1CC[C@@H](CO)O1 | infectious virus yield | Vero C1008, VOC-202012/01 | 48 h, 50% decrease endpoint | ~3.1 µM |
| O=C(CCC(=O)NNC(=O)C(c1ccccc1)c1ccccc1)NCc1ccccc1 | plaque formation, plaque reduction | Vero E6 | 72 h | > 50 µM |
| O=C1c2ccccc2-[n+]2ccc3c([nH]c4ccccc43)c21 | virus-induced cytopathic effect | Vero E6, USA-WA1/2020 | 72 h | > 20 µM |
| CCN(CC)CCNC(=O)c1c(C)[nH]c(/C=C2\C(=O)Nc3ccc(F)cc32)c1C | viral replication | Vero E6, USA-WA1/2020 | – | 2.4 µM |
| Cn1cnc(Cn2c(=O)[nH]/c(=N\c3cc4cn(C)nc4cc3Cl)n(Cc3cc(F)c(F)cc3F)c2=O)n1 | viral replication | Vero C1008, BA.5 | – | 0.14 µM |
| COc1ccc(Cn2[se]c3ccccc3c2=O)c(OC)c1 | viral replication, WST-8 | Vero E6, USA-WA1/2020 | 72 h | > 20 µM |
| CC1(C)CCC(c2ccc(Cl)cc2)=C(CN2CCN(c3ccc(C(=O)NS(=O)(=O)c4ccc(N[C@H](CCN5CCOCC5)CSc5ccccc5)c(S(=O)(=O)C(F)(F)F)c4)cc3)CC2)C1 | viral replication, GFP plate reader screen | – | cell-based | > 100 µM |
| CC1(C)C=Cc2c(cc3occ(-c4ccc(O)cc4)c(=O)c3c2O)O1 | viral replication | Calu-3, mNeonGreen reporter | – | 16.3 ± 1.1 µM |
| CCC(CC)COC(=O)[C@H](C)N[P@](=O)(OC[C@H]1O[C@@](C#N)(c2ccc3c(N)ncnn23)[C@H](O)[C@@H]1O)Oc1ccccc1 | viral replication, RT-qPCR | VeroE6, WK-521 | – | 5 ± 0.05 µM |
| CCNC(=O)[C@@H](NC(=O)c1ccccc1NC(=O)c1ccc(OC)cc1)C(C)C | plaque formation, plaque reduction | Vero E6 | 72 h | > 50 µM |
| COc1cc2c(cc1N1C[C@@H](C)N[C@@H](C)C1)N(C(=O)c1ccc(-c3ccc(-c4noc(C)n4)cc3C)cc1)CC2 | viral replication | Huh-7-ACE2, USA-WA1/2020 | 24 h | 0.64 µM |
| CCC(CC)COC(=O)[C@H](C)N[P@](=O)(OC[C@H]1O[C@@](C#N)(c2ccc3c(N)ncnn23)[C@H](O)[C@@H]1O)Oc1ccccc1 | viral replication, qRT-PCR of viral RNA | Caco-2, Washington | – | 0.02 ± 0.01 µM |
| C=CC(=O)Nc1cc(Nc2nccc(-c3cn(C)c4ccccc34)n2)c(OC)cc1N(C)CCN(C)C | viral replication, high-content imaging screen | – | cell-based | > 100 µM |
| CC(C)CC(NC(=O)OCc1ccccc1)C(=O)NC(C(=O)NCC(=O)C=[N+]=[N-])C(C)C (stereo not drawn) | viral replication | 293T-ACE2, USA-WA1/2020 | 24 h | 0.0011 µM |

For quick reference, copied from above:
| Substance | test | test system | setting | EC50 |
| --- | --- | --- | --- | --- |
| Fc1ccc(-c2ccc(CN3CCN(c4cccc5ccoc45)CC3)[nH]2)cc1 | viral replication | Huh-7-ACE2, USA-WA1/2020 | 24 h | 2.7 µM |
| CC(=O)N[C@@H](CC(C)C)C(=O)N[C@@H](CC(C)C)C(=O)N[C@H](C=O)CCCNC(=N)N | viral replication | Huh-7 | 48 h | 10.6 µM |
| Cc1c(-c2ccccc2)oc2c(C(=O)OC(C)(C)CN3CCCCC3)cccc2c1=O | viral replication, high-content imaging screen | – | cell-based | > 100 µM |
| CC(C)(C)[C@H](NC(=O)C(F)(F)F)C(=O)N1C[C@H]2[C@@H]([C@H]1C(=O)N[C@H](C#N)C[C@@H]1CCNC1=O)C2(C)C | viral replication | Calu-3, Omicron BA.2 | – | 0.9 µM |
| CC(C)OC(=O)[C@H](C)N[P@](=O)(OC[C@H]1O[C@@](C#N)(c2ccc3c(N)ncnn23)[C@H](O)[C@@H]1O)Oc1ccccc1 | viral replication | A549-ACE2-TMPRSS2, WA1 | 24 h | 5.2 µM |
